Experimental data from different studies.
Protocols differ between the studies behind these lines. ± gives the spread as reported.
Sequence of UniProt P35968 (whole entry, looked up): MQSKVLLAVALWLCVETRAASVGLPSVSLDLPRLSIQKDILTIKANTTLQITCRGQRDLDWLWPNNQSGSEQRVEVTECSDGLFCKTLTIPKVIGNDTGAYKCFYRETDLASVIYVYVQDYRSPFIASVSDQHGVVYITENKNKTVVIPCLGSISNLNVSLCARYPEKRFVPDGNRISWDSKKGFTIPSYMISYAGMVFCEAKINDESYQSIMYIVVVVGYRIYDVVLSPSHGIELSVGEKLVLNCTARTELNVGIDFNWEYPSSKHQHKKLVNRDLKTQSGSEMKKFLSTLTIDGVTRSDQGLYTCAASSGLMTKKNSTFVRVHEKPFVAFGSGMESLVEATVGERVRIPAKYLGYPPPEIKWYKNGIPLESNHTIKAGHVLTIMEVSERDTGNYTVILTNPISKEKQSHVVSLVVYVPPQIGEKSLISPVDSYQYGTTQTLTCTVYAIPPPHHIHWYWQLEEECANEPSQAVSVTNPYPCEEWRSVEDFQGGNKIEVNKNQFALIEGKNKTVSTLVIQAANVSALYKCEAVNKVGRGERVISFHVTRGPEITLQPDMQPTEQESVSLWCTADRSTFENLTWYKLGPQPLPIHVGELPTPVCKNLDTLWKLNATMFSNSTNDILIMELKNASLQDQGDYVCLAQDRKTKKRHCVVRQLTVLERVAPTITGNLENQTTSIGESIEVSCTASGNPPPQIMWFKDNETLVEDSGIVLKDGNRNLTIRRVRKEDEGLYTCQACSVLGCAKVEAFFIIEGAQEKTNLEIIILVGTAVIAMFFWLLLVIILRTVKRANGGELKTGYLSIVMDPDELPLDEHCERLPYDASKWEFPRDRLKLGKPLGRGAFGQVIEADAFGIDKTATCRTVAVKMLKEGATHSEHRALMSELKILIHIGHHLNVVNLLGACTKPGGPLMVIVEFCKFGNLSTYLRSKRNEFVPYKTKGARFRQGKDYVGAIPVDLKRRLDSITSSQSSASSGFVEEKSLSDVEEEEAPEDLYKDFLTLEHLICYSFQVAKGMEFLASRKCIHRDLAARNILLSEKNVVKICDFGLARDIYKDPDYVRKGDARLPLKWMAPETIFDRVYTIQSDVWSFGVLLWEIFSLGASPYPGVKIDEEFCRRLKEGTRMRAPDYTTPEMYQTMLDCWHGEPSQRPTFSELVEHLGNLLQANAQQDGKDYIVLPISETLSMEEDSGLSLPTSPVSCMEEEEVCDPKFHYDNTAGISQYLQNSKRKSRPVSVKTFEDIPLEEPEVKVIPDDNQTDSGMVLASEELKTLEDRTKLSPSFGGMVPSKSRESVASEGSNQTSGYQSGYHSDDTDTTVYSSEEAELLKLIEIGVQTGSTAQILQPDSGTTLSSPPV
Sequence of UniProt Q9UKI8 (whole entry, looked up): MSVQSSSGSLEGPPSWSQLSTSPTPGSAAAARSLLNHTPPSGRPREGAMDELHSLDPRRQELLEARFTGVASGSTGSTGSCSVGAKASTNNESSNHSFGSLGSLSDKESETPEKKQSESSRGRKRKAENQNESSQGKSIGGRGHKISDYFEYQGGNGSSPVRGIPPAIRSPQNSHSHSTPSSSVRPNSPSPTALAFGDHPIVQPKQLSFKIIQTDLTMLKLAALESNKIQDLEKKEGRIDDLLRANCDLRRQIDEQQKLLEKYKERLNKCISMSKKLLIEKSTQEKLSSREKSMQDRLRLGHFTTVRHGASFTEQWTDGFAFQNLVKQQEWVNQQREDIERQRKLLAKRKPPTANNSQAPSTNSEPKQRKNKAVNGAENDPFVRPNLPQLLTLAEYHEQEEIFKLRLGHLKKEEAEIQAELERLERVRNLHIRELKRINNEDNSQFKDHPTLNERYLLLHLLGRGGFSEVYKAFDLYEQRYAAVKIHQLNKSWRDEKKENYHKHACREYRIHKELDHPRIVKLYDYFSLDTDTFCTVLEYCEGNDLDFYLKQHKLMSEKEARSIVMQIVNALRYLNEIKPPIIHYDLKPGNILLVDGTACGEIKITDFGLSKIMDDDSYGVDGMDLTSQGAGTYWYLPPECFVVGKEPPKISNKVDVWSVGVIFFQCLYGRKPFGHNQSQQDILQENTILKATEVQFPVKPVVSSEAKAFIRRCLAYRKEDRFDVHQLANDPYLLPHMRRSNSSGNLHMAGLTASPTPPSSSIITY
Sequence of UniProt Q00534 (whole entry, looked up): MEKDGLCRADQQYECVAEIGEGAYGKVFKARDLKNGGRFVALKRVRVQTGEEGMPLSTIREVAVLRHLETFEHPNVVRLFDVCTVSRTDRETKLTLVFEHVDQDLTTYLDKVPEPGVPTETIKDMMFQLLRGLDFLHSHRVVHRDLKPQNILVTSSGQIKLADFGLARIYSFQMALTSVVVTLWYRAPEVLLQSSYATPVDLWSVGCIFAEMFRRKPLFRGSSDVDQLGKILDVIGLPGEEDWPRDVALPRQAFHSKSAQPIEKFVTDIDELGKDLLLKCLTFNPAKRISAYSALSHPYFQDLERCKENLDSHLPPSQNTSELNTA
Sequence of UniProt P06493 (whole entry, looked up): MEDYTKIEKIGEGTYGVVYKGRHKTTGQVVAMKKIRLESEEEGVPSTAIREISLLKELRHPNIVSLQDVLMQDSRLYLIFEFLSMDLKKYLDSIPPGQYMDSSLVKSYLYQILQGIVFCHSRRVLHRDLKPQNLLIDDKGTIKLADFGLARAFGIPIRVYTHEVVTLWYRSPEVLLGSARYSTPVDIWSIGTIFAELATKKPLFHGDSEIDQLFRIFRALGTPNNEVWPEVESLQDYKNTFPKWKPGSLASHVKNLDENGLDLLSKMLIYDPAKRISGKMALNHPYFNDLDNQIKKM
Sequence of UniProt P36507 (whole entry, looked up): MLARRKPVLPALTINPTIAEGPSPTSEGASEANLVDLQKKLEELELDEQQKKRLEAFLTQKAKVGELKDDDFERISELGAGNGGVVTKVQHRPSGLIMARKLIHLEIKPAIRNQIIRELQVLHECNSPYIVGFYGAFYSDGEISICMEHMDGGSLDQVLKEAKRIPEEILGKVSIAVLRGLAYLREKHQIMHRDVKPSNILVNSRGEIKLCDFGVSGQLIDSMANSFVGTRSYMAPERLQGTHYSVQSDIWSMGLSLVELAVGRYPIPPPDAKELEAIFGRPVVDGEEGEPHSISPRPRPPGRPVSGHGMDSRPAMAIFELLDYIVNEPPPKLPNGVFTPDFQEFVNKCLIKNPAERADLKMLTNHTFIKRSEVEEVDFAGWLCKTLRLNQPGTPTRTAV
Sequence of UniProt Q04912 (whole entry, looked up): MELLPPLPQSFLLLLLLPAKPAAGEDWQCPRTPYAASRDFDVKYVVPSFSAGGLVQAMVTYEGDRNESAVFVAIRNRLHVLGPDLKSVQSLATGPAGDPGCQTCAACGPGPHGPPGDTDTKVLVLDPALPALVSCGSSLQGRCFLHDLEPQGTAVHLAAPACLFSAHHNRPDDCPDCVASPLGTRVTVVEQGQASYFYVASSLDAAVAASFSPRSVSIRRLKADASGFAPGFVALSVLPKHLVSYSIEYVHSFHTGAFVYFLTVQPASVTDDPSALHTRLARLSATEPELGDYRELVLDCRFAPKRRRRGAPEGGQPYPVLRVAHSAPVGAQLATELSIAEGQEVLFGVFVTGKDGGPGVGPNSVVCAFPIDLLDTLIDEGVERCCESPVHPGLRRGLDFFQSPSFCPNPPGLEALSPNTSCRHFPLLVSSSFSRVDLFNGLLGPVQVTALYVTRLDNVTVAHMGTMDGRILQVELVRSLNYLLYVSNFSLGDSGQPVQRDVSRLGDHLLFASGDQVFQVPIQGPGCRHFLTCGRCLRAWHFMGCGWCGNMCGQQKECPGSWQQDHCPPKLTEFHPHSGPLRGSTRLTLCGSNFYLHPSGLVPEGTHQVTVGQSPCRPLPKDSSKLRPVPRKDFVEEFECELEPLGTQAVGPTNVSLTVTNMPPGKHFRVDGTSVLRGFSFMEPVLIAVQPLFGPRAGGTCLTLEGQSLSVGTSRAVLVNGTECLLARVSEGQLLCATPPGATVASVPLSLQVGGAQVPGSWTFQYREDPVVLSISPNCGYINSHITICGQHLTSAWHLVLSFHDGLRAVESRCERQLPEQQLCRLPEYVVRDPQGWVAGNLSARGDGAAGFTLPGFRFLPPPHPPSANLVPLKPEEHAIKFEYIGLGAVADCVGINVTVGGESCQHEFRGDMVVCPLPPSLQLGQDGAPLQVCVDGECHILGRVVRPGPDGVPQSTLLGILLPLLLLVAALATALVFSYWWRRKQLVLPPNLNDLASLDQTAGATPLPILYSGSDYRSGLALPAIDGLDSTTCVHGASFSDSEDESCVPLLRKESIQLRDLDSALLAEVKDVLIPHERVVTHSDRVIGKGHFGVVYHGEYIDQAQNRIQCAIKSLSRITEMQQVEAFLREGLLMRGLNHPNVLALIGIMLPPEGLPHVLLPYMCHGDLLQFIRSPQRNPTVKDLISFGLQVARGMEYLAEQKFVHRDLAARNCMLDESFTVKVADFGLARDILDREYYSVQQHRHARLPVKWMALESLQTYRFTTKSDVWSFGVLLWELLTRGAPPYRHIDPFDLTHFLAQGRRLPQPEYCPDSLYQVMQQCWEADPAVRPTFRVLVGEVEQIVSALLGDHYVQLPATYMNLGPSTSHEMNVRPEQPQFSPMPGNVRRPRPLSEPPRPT

| SMILES | target or system | assay | test system | setting | measurement | value |
| --- | --- | --- | --- | --- | --- | --- |
| COc1ccc(F)cc1S(=O)(=O)Nc1cnc2c(c1)C(=O)NCCO2 | angiotensin-converting enzyme | enzyme activity | – | 10 µM | inhibition | -15% |
| N[C@H](C(=O)N1CCCC1)C1CCN(c2nccc3c(-c4ncc(Cl)cc4Cl)cccc23)CC1 | Vascular endothelial growth factor receptor 2 (KDR, Homo sapiens, UniProt P35968) | kinase activity, inhibitor | – | 10 µM, together with: ATP 1 mM | inhibition | 11.8% |
| CC(C)[C@H]1NC(=O)C[C@H]2/C=C/CCSSC[C@@H](NC1=O)C(=O)N[C@H](Cc1cccc3ccccc13)C(=O)NCC(=O)O2 | Cyclin-dependent kinase 1, with cyclin B1 (CDK1, Homo sapiens, UniProt P06493) | enzyme activity, inhibitor | – | 10 µM | inhibition | -3.7% |
| C[C@H](NCc1ccc(-c2ccc(C(F)(F)F)cc2)cc1)C(N)=O | Dual specificity mitogen-activated protein kinase kinase 2 (MAP2K2, Homo sapiens, UniProt P36507) | cell-free assay, competition with immobilised ligand | – | 1 µM | inhibition | 0% |
| O=C(O)c1ccccc1/C=N/Nc1nc(-c2ccccc2Cl)cs1 | Cyclin-dependent kinase 6, with cyclin D3 (CDK6, Homo sapiens, UniProt Q00534) | enzyme activity, inhibitor | – | 1 µM | inhibition | -0.9% |
| CS(C)(=O)=Nc1ccc(-c2ccc(-c3nc4cc(O[C@@H]5CO[C@H]6[C@@H]5OC[C@H]6O)[nH]c4cc3F)cc2)cc1 | SKCa channel | binding, radioligand binding | – | 10 µM | inhibition | 5% |
| CN(C)[C@H]1C[C@@]23CC[C@@]4(O2)C(=CC[C@]2(C)[C@@H](c5ccc6ccncc6c5)CC[C@H]24)C=C3[C@@H](O)[C@@H]1O | Serine/threonine-protein kinase tousled-like 1 (TLK1, Homo sapiens, UniProt Q9UKI8) | ATP probe labelling, inhibitor, KiNativ profiling | – | 1 µM | inhibition | -7.8% |
| CN(/N=C/c1ccccc1C(=O)O)c1nc(-c2ccccc2Cl)cs1 | Macrophage-stimulating protein receptor (MST1R, Homo sapiens, UniProt Q04912) | enzyme activity, inhibitor | – | 1 µM | inhibition | -24% |
| O=C(CN1CN(c2ccccc2)C2(CCN(C(=O)c3cnc4[nH]ncc4c3)CC2)C1=O)NCC(F)(F)F | Phosphatidylinositol 4-phosphate 5-kinase type-1 gamma (PIP5K1C, Homo sapiens, UniProt O60331) | inhibitor | – | concentration not given | inhibition | < 50% |
| O=C1NC2(CC2)COc2ncc(F)cc2[C@H]2COCCN2c2ccn3ncc1c3n2 | – | – | Sprague-Dawley rat, female, liver | oral, 20 mg/kg/day, 4 weeks, end of treatment | organ-to-body weight ratio | 3.5 ± 0.332% |
